{"data": "Assay results collected from several papers", "note": "A part holds a random share of what one study measured.", "UniProt P53778, sequence (whole entry, looked up)": "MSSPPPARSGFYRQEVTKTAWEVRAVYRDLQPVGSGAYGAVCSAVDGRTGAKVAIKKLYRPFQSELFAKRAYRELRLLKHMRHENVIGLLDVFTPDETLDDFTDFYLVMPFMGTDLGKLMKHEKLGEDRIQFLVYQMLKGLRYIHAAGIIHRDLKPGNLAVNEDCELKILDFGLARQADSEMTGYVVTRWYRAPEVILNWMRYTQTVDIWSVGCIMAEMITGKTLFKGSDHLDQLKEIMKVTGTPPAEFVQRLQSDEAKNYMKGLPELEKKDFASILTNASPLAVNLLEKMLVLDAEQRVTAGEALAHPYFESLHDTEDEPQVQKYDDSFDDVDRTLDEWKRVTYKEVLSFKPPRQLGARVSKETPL", "UniProt P54756, sequence (whole entry, looked up)": "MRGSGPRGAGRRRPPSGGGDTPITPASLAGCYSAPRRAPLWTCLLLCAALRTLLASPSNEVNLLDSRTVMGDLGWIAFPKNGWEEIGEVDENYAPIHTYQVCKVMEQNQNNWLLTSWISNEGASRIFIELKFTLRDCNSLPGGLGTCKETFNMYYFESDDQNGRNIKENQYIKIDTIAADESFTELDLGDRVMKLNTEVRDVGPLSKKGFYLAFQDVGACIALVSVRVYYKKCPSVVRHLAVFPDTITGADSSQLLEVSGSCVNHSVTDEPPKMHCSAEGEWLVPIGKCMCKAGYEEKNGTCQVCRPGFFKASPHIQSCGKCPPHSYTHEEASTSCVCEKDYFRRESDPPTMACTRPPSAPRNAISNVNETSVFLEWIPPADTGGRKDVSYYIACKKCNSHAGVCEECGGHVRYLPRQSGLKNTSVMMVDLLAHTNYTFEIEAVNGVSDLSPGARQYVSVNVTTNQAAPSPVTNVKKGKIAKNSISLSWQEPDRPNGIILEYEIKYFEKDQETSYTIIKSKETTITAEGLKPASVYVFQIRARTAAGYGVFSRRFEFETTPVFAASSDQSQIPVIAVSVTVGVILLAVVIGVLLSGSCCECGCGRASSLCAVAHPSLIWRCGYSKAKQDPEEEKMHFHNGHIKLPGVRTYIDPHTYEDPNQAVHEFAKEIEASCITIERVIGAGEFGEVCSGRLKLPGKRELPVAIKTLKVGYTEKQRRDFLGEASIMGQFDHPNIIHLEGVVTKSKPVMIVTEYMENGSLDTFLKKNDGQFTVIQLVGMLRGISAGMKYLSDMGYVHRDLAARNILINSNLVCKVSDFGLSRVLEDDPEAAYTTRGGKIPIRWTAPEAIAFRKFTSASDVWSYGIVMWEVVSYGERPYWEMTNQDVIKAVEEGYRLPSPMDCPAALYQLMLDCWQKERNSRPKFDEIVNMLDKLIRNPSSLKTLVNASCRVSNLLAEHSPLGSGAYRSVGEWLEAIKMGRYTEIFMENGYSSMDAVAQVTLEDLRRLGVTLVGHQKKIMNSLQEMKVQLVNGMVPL", "UniProt Q9HBH9, sequence (whole entry, looked up)": "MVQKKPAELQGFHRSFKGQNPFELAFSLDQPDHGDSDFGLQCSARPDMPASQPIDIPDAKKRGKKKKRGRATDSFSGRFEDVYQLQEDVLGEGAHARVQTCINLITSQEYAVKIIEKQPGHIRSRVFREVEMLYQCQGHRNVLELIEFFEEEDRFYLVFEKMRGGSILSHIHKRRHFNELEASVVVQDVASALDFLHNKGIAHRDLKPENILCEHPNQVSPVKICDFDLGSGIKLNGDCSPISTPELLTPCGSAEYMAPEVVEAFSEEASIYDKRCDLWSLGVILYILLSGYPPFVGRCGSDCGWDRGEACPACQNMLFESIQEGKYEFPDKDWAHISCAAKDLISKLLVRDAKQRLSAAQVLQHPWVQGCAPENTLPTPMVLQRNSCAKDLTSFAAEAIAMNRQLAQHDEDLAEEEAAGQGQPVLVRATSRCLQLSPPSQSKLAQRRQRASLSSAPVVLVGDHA"}
{"data": "Study 1", "target": "Bromodomain-containing protein 4, BD1 (BRD4, Homo sapiens, UniProt O60885)", "effect on": "acetyl-histone H4 peptide binding", "method": "AlphaScreen displacement", "tested at": "50 µM"}
{"Structure (SMILES)": "Nc1[nH]nc2nnc(-c3c(-c4ccccc4)nn4ccccc34)cc12", "inhibition [%]": 16.1}
{"Structure (SMILES)": "Nc1nc(Nc2ccc(Cl)c(Cl)c2)sc1C(=O)c1ccc(F)cc1", "inhibition [%]": 49.1}
{"Structure (SMILES)": "COc1ccc(Nc2ncc(F)c(Nc3ccc(OC)cc3)n2)cc1", "inhibition [%]": 28.3}
{"Structure (SMILES)": "CC(=O)CCCCn1c(=O)c2c(ncn2C)n(C)c1=O", "inhibition [%]": 2.8}
{"Structure (SMILES)": "O=C(O)Cc1cc(Cl)c2oc(-c3ccccc3)c(O)c(=O)c2c1", "inhibition [%]": 43.5}
{"Structure (SMILES)": "O=C(CSc1ccc2nnc(-c3cccc(F)c3)n2n1)NCc1ccc(F)cc1", "inhibition [%]": 19.6}
{"Structure (SMILES)": "COc1ccc(-c2nnc3ccc(SC(C(C)=O)C(C)=O)nn23)cc1OC", "inhibition [%]": 33.7}
{"Structure (SMILES)": "COc1cccc(-c2nc(NCCCN(C)C)c3ccccc3n2)c1O", "inhibition [%]": 49.5}
{"Structure (SMILES)": "O=C1Cc2c([nH]c3ccc(Br)cc23)-c2ccccc2N1", "inhibition [%]": 20.8}
{"Structure (SMILES)": "COc1ccc(Nc2ncc(F)c(N3CCOCC3)n2)cc1", "inhibition [%]": 20.1}
{"Structure (SMILES)": "O=C1NC(=O)/C(=C/c2ccc(-c3nc4ccccc4s3)o2)S1", "inhibition [%]": 11.3}
{"data": "Study 2", "target": "5-hydroxytryptamine receptor 7 (HTR7, Homo sapiens, UniProt P34969)", "effect on": "binding", "method": "radioligand binding", "tested at": "10 µM", "UniProt P34969, sequence (whole entry, looked up)": "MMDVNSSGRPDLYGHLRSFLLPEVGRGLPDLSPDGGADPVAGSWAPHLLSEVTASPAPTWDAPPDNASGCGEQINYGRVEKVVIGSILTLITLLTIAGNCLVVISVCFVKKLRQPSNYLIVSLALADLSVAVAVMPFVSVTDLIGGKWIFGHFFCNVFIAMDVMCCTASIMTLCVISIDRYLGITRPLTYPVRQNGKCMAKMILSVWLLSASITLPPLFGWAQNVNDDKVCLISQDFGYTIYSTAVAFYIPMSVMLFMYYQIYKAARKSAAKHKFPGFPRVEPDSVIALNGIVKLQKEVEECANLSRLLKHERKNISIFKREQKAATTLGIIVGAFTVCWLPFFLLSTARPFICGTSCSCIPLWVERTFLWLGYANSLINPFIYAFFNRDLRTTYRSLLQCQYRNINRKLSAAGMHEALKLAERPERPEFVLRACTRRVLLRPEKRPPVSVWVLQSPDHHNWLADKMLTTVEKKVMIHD"}
{"Structure (SMILES)": "CC(=O)N1CCC(c2ccc(C(=O)NC(=N)N)cc2C(F)(F)F)CC1", "inhibition": "16.3%"}
{"Structure (SMILES)": "C[C@@H]1CN(c2cc(-c3nn(C)c4ccc(OC5(C)CC5)cc34)ncn2)C[C@H](C)O1", "inhibition": "-0.4%"}
{"Structure (SMILES)": "CC(=O)Nc1nc(CN2CCC[C@H](Cc3cc(C)nc(C)c3)C2)cs1", "inhibition": "2.58%"}
{"Structure (SMILES)": "CC(=O)Nc1c(F)cc(C(=O)N[C@H]2CC[C@H](O)CC2)cc1O[C@@H](C)c1ccccc1", "inhibition": "17.6%"}
{"Structure (SMILES)": "O[C@]1(C(F)(F)F)CCCC[C@H]1Nc1ccc(F)cc1", "inhibition": "-29.1%"}
{"Structure (SMILES)": "Cc1nc(C2CCN(C(=O)c3ccc(OC(F)(F)F)cc3N)CC2)c2ncc(N3CCN(C)CC3)cc2n1", "inhibition": "-0.78%"}
{"Structure (SMILES)": "COc1ccc2c(c1)O[C@@H](c1ccc(OC)c(OC)c1)C[C@H]2NC(=O)C1(c2ccc3c(c2)OC(F)(F)O3)CC1", "inhibition": "-21.8%"}
{"Structure (SMILES)": "Cc1nc(Cc2cccc(C(F)(F)F)c2)sc1-c1ccc(C(N)=O)nc1", "inhibition": "16.4%"}
{"Structure (SMILES)": "C[C@@]1(Cc2ccc(C#N)cc2)C(=O)N(c2cc(Cl)cc(Cl)c2)c2ncc(C(=O)NC3(c4nc(C5CCC5)no4)CC3)n21", "inhibition": "4.18%"}
{"Structure (SMILES)": "O=C(Nc1cnc(Oc2ccc(F)cc2)nc1)N1CCc2ncccc2[C@@H]1c1ccc(F)cc1", "inhibition": "2.63%"}
{"Structure (SMILES)": "O=C1CCc2cc(Nc3cc(OC4CCOCC4)c([N+](=O)[O-])cc3Cl)ccc2N1", "inhibition": "12.3%"}
{"Structure (SMILES)": "Cc1nccc(COC(=O)N2C[C@@H]3[C@@H](CNC(=O)c4ccc5[nH]nnc5c4)[C@@H]3C2)n1", "inhibition": "9.56%"}
{"Structure (SMILES)": "CCCOc1ccc([C@H]2[C@H](C(=O)O)[C@@H](c3ccc4c(c3)OCO4)CN2CC(=O)Nc2c(CC)cccc2CC)cc1", "inhibition": "-3.72%"}
{"Structure (SMILES)": "CS(=O)(=O)NCC[C@H](NC(=O)c1cncc2c1cnn2-c1ccc(F)cc1)c1ccnc(S(C)(=O)=O)c1", "inhibition": "4.81%"}
{"Structure (SMILES)": "Cc1c[nH]c2nccc(Oc3c(F)cc(Nc4cc(Cl)nc(N)n4)cc3F)c12", "inhibition": "9.29%"}
{"Structure (SMILES)": "CC1=C(C#N)[C@@H](c2ccc3[nH]nc(C)c3c2)C(C#N)=C(c2ccc(Cl)cc2)N1", "inhibition": "8.19%"}
{"Structure (SMILES)": "CN1C(=O)[C@@H](N2CCc3cn(Cc4ccccc4)nc3C2=O)COc2ccccc21", "inhibition": "-1.17%"}
{"Structure (SMILES)": "CC(C)(O)c1cncc(-c2nc3ccc(F)cc3n2C2CC2)c1", "inhibition": "-2.18%"}
{"Structure (SMILES)": "Nc1c(C(=O)NCc2ccc(C(=O)NCCCC3CCCCC3)cc2)cnn1-c1ccccc1", "inhibition": "13.2%"}
{"Structure (SMILES)": "O=C(Nc1cccnn1)N1CC(CC=Cc2cncc(Oc3ccc(C(F)(F)F)cn3)n2)C1", "inhibition": "1.18%"}
{"Structure (SMILES)": "O=C(NC[C@@H]1[C@H]2CN(C(=O)OCc3cc(C(F)(F)F)cc(C(F)(F)F)c3)C[C@@H]12)c1ccc2[nH]nnc2c1", "inhibition": "19%"}
{"data": "Study 3", "target": "DNA polymerase theta, helicase domain (POLQ, Homo sapiens, UniProt O75417)", "effect on": "enzyme activity", "tested at": "concentration not given", "setting": "without ssDNA", "UniProt O75417, sequence (whole entry, looked up)": "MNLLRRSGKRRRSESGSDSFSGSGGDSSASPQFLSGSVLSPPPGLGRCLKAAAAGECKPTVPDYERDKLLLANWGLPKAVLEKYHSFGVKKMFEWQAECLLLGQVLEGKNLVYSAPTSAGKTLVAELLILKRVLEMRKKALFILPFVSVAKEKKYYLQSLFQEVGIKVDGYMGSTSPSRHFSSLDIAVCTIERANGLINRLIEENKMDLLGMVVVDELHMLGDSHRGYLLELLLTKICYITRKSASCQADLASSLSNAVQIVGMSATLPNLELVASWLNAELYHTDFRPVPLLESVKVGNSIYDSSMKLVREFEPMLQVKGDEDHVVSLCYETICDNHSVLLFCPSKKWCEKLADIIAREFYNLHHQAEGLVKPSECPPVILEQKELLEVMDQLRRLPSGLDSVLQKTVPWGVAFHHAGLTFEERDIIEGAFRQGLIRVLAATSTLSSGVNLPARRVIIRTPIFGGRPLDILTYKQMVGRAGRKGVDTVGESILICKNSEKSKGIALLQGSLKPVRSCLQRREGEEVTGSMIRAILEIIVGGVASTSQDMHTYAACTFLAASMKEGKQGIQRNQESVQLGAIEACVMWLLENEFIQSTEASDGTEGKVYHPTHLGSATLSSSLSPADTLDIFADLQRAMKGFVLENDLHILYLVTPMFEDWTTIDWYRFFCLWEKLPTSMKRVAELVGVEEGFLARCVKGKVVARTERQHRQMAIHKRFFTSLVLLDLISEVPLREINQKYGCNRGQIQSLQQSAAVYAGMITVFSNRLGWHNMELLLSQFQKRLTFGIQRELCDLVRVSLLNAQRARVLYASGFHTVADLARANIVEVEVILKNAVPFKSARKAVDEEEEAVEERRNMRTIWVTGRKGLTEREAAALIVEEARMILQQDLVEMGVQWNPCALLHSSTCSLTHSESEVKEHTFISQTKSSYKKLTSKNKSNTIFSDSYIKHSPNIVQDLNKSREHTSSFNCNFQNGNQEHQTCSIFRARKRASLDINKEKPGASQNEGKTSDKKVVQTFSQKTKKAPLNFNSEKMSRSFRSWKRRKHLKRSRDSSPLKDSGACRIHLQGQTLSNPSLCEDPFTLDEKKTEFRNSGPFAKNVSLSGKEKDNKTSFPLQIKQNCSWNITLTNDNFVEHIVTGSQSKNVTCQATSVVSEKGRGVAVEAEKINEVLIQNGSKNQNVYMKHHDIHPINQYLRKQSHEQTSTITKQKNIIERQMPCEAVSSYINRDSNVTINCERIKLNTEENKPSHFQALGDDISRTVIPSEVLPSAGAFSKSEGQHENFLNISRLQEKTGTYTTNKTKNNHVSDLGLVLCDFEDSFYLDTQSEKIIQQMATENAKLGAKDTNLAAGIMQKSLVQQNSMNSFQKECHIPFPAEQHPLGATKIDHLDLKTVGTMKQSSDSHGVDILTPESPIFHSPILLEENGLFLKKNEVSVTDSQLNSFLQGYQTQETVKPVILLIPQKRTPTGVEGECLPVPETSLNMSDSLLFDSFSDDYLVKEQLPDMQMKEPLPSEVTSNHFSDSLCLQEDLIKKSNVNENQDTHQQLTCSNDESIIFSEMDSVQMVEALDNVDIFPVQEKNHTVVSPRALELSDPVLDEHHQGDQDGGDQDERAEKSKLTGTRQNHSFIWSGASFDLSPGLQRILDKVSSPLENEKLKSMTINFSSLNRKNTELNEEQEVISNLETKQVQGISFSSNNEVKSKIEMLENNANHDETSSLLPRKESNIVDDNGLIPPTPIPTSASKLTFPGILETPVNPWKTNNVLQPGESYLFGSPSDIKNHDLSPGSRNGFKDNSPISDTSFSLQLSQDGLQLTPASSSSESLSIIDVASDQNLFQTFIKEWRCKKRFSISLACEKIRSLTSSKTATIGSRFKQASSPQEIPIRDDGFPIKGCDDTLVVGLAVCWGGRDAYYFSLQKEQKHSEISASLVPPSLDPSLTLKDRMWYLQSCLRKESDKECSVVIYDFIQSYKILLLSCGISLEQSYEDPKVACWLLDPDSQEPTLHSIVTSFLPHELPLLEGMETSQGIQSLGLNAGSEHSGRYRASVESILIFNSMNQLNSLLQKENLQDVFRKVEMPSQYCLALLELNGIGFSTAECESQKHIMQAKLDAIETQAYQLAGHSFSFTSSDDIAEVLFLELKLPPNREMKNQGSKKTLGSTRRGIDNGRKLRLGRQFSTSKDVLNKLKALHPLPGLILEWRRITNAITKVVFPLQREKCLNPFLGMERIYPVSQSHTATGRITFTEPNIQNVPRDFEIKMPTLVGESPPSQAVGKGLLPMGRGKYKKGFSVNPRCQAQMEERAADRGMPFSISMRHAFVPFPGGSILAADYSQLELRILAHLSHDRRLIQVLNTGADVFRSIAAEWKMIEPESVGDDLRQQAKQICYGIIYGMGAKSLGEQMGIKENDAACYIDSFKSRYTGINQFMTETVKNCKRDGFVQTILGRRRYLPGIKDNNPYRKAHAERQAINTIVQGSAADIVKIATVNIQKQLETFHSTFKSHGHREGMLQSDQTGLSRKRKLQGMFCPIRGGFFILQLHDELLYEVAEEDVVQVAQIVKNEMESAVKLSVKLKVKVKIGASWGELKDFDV"}
{"SMILES": "Cc1ccccc1C(=O)Nc1sc2c(c1C(=O)O)CCC(C(C)(C)C)C2 (stereo not shown)", "remaining activity": "30.4%"}
{"SMILES": "CCCCCCCCCCC/C=C\\C(C)(C)/C=C\\CCCC(=O)O", "remaining activity": "101%"}
{"SMILES": "O=C(CSc1ncc(S(=O)(=O)c2ccc(Br)cc2)c(=O)[nH]1)NCc1ccc(Cl)cc1", "remaining activity": "68.2%"}
{"SMILES": "CCOc1cccc2c1N[C@@H](c1ccc(C(=O)O)cc1)[C@H]1CC=C[C@@H]21", "remaining activity": "64.6%"}
{"SMILES": "CSc1ccc(/C=C/c2nc3ccccc3n2S(=O)(=O)c2cccc(Cl)c2)cc1", "remaining activity": "65.5%"}
{"SMILES": "CCOc1ccc2nc3cc(N)ccc3c(N)c2c1", "remaining activity": "99.1%"}
{"SMILES": "N#Cc1c(O)c2c(-c3ccc(-c4ccccc4O)cc3)csc2[nH]c1=O", "remaining activity": "48.2%"}
{"SMILES": "COc1cccc2c1C(=O)c1c(O)c3c(c(O)c1C2=O)C[C@@](O)(C(=O)CO)C[C@@H]3O[C@H]1C[C@H](N)[C@@H](O)[C@H](C)O1", "remaining activity": "97.9%"}
{"SMILES": "CC1=Nc2cc(C(=O)NCCc3ccc(Cl)cc3)ccc2Sc2ccc(C)cc21", "remaining activity": "62.5%"}
{"SMILES": "O=C(O)C1=CC(=C(c2ccc(O)c(C(=O)O)c2)c2ccc(O)c(C(=O)O)c2)C=CC1=O", "remaining activity": "8.89%"}
{"SMILES": "Cc1ccc(C(=O)Nc2ccccc2C(=O)O)cc1S(=O)(=O)N1CCCCCC1", "remaining activity": "64.6%"}
{"SMILES": "O=C(Nc1ccccc1F)c1ccc2c(Cl)c3c(nc2c1)CCC3", "remaining activity": "84.2%"}
{"SMILES": "O=C(O)[C@]1(Cc2cccc(Nc3nccs3)n2)CC[C@@H](Oc2cccc(Cl)c2F)CC1", "remaining activity": "51.1%"}
{"SMILES": "Cc1ccc(-c2n[nH]c3c2C(c2ccccc2Cl)N(c2ccc(C(=O)O)cc2)C3=O)cc1 (stereo not shown)", "remaining activity": "84.6%"}
{"data": "Study 4", "Structure (SMILES)": "COc1ccc(S(=O)(=O)N(CCO)c2ccccc2CN(C)CC=Cc2ccc(Cl)cc2)cc1", "effect on": "enzyme activity", "action": "inhibitor", "tested at": "0.5 µM", "reference": "control"}
{"target": "Interleukin-1 receptor-associated kinase 4 (IRAK4, Homo sapiens, UniProt Q9NWZ3)", "remaining activity [%]": 97.2}
{"target": "Leucine-rich repeat serine/threonine-protein kinase 2 (LRRK2, Homo sapiens, UniProt Q5S007)", "remaining activity [%]": 101}
{"target": "Protein kinase C delta type (PRKCD, Homo sapiens, UniProt Q05655)", "remaining activity [%]": 94.3}
{"target": "Dual specificity mitogen-activated protein kinase kinase 6 (MAP2K6, Homo sapiens, UniProt P52564)", "remaining activity [%]": 108}
{"target": "Mitogen-activated protein kinase 13 (MAPK13, Homo sapiens, UniProt O15264)", "remaining activity [%]": 102}
{"target": "Mitogen-activated protein kinase kinase kinase 10 (MAP3K10, Homo sapiens, UniProt Q02779)", "remaining activity [%]": 92.4}
{"target": "Cyclin-dependent kinase 9, with cyclin T1 (CDK9, Homo sapiens, UniProt P50750)", "remaining activity [%]": 103}
{"target": "Serine/threonine-protein kinase Chk1 (CHEK1, Homo sapiens, UniProt O14757)", "remaining activity [%]": 93.5}
{"target": "RAC-gamma serine/threonine-protein kinase (AKT3, Homo sapiens, UniProt Q9Y243)", "remaining activity [%]": 105}
{"target": "Mast/stem cell growth factor receptor Kit (KIT, Homo sapiens, UniProt P10721)", "remaining activity [%]": 103}
{"target": "Casein kinase II subunit alpha (CSNK2A1, Homo sapiens, UniProt P68400)", "remaining activity [%]": 99.5}
{"target": "Serine/threonine-protein kinase WNK2 (WNK2, Homo sapiens, UniProt Q9Y3S1)", "remaining activity [%]": 97.1}
{"target": "Tyrosine-protein kinase Lyn (LYN, Homo sapiens, UniProt P07948)", "remaining activity [%]": 96.8}
{"target": "Serine/threonine-protein kinase Nek4 (NEK4, Homo sapiens, UniProt P51957)", "remaining activity [%]": 98.7}
{"target": "cGMP-dependent protein kinase 1 (PRKG1, Homo sapiens, UniProt Q13976)", "remaining activity [%]": 94.7}
{"target": "MAP kinase-interacting serine/threonine-protein kinase 2 (MKNK2, Homo sapiens, UniProt Q9HBH9)", "remaining activity [%]": 102}
{"target": "Protein kinase C iota type (PRKCI, Homo sapiens, UniProt P41743)", "remaining activity [%]": 97.5}
{"target": "Serine/threonine-protein kinase 38 (STK38, Homo sapiens, UniProt Q15208)", "remaining activity [%]": 98.3}
{"target": "Tyrosine-protein kinase BTK (BTK, Homo sapiens, UniProt Q06187)", "remaining activity [%]": 96.4}
{"target": "Ephrin type-A receptor 5 (EPHA5, Homo sapiens, UniProt P54756)", "remaining activity [%]": 98.1}
{"target": "Casein kinase I isoform alpha (CSNK1A1, Homo sapiens, UniProt P48729)", "remaining activity [%]": 99.3}
{"target": "Serine/threonine-protein kinase PLK2 (PLK2, Homo sapiens, UniProt Q9NYY3)", "remaining activity [%]": 102}
{"target": "Mitogen-activated protein kinase kinase kinase kinase 2 (MAP4K2, Homo sapiens, UniProt Q12851)", "remaining activity [%]": 92.6}
{"target": "Mitogen-activated protein kinase 12 (MAPK12, Homo sapiens, UniProt P53778)", "remaining activity [%]": 98.9}
{"note": "A few entries again (study 4):"}
{"target": "Casein kinase I isoform alpha (CSNK1A1, Homo sapiens, UniProt P48729)", "remaining activity [%]": 99.3}
{"target": "Serine/threonine-protein kinase PLK2 (PLK2, Homo sapiens, UniProt Q9NYY3)", "remaining activity [%]": 102}
{"target": "Mitogen-activated protein kinase kinase kinase kinase 2 (MAP4K2, Homo sapiens, UniProt Q12851)", "remaining activity [%]": 92.6}
{"target": "Mitogen-activated protein kinase 12 (MAPK12, Homo sapiens, UniProt P53778)", "remaining activity [%]": 98.9}
